Results gathered from unrelated publications.
Parts stem from different laboratories: compare values within a part only.
UniProt Q16288, sequence (whole entry, looked up): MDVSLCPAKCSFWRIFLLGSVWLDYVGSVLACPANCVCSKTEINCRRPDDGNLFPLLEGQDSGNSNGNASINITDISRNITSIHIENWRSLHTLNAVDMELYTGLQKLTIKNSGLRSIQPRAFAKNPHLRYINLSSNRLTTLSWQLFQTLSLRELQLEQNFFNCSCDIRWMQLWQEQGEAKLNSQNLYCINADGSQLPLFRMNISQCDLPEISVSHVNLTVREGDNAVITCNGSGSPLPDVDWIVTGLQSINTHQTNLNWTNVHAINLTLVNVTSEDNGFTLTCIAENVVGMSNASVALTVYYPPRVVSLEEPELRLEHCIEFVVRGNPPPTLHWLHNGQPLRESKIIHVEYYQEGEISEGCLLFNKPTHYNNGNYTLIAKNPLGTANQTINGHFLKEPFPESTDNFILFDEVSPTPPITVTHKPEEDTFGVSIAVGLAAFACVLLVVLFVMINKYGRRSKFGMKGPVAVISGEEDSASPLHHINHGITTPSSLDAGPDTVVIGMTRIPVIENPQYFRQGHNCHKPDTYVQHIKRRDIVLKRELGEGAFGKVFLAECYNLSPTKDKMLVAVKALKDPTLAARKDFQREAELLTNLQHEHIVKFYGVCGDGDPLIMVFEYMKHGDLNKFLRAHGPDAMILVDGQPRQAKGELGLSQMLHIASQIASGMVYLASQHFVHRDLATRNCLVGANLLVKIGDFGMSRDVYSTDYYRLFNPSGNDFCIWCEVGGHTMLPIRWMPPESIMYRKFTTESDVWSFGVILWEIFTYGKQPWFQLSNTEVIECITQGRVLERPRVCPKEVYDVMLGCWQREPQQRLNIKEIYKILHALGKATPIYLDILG
UniProt Q15139, sequence (whole entry, looked up): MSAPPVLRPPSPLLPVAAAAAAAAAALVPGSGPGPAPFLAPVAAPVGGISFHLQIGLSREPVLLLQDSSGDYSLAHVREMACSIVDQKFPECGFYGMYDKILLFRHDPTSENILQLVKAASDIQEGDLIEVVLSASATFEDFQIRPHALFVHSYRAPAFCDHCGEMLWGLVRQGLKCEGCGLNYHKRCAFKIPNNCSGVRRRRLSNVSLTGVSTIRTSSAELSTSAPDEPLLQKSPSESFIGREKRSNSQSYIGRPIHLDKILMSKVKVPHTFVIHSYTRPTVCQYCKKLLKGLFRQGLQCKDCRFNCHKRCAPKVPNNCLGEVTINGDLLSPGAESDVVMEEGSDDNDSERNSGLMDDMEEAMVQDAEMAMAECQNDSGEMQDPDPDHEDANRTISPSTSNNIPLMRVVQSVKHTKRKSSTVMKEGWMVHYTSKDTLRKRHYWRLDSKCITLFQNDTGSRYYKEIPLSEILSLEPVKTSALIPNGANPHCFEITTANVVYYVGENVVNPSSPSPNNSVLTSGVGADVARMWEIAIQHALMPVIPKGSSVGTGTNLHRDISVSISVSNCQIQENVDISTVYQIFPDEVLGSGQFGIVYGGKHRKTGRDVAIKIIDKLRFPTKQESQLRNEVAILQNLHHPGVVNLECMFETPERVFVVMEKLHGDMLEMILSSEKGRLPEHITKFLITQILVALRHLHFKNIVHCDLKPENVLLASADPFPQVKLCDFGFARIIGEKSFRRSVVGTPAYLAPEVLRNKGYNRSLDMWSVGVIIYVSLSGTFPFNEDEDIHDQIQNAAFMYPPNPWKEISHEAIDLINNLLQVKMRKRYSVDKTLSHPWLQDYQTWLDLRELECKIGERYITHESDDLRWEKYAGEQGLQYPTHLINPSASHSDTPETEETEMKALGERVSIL
UniProt P34947, sequence (whole entry, looked up): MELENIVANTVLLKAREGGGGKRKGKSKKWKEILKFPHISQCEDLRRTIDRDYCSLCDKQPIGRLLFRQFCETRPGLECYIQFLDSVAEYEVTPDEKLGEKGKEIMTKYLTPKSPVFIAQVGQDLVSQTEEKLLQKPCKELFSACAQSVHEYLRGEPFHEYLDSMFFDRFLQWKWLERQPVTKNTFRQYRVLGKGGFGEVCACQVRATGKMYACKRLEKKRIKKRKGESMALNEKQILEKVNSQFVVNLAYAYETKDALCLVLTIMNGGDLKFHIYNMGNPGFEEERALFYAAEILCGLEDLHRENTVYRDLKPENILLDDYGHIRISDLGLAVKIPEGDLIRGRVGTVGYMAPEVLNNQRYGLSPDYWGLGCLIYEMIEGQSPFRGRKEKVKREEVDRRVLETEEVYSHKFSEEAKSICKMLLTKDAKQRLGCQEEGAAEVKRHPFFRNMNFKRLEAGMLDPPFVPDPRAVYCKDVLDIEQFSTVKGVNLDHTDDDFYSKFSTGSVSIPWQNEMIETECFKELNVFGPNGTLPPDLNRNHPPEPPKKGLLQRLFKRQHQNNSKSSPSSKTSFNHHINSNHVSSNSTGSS
UniProt Q8WXR4, sequence (whole entry, looked up): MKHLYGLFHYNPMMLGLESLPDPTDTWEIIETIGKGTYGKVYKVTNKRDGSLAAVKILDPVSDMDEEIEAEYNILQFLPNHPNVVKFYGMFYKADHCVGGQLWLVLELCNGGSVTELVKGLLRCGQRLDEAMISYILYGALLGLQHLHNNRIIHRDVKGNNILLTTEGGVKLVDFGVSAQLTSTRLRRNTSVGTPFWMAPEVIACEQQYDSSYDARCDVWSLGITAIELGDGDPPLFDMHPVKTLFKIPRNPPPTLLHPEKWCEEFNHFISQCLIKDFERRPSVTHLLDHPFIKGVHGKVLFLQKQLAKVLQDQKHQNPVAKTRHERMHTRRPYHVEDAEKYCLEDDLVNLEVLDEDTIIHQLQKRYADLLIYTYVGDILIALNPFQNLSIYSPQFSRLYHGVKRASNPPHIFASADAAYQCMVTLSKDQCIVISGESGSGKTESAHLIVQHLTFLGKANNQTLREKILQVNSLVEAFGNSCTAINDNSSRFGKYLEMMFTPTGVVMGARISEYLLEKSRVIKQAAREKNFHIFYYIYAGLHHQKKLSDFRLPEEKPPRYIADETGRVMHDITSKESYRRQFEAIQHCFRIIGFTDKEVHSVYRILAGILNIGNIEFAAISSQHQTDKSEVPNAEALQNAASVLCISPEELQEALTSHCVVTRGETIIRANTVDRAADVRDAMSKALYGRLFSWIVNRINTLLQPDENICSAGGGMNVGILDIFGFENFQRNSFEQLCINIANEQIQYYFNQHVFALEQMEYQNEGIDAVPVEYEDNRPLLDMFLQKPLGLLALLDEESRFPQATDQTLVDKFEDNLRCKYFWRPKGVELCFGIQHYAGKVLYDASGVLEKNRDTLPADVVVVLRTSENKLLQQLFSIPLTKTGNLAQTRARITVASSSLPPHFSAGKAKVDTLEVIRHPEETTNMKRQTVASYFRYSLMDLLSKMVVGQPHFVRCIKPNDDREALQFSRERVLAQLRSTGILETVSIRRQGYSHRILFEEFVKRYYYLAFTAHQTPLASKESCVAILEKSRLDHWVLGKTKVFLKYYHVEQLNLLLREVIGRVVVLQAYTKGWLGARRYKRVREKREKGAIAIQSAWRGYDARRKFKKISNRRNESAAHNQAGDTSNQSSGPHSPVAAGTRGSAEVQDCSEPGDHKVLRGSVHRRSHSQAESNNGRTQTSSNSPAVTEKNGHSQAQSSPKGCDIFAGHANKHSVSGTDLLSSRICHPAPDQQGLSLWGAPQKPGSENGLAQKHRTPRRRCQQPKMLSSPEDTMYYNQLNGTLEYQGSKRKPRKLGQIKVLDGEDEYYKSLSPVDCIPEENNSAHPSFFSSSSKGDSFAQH
UniProt P50613, sequence (whole entry, looked up): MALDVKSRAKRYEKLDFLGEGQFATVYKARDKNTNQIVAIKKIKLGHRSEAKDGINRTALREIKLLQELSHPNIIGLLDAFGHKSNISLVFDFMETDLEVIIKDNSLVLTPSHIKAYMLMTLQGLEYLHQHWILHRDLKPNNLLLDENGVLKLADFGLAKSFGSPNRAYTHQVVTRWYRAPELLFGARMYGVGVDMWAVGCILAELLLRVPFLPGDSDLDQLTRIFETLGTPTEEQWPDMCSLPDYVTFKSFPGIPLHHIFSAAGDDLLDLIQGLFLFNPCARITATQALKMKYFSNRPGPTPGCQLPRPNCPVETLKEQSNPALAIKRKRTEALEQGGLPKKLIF
UniProt P53779, sequence (whole entry, looked up): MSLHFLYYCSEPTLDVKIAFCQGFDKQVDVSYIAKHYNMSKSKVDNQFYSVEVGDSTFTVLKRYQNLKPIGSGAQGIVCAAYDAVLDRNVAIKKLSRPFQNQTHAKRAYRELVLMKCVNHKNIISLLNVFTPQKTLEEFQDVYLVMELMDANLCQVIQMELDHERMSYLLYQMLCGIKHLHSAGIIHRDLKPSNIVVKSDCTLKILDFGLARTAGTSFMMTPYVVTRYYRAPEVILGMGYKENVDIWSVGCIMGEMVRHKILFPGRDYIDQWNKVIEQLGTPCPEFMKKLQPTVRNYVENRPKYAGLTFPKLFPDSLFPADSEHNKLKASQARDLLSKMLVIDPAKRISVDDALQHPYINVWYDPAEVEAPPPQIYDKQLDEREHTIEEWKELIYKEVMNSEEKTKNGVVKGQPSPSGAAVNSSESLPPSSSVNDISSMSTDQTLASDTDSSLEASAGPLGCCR

Block 1
SMILES: CNc1cc2c(Nc3cccc(Br)c3)ncnc2cn1
Effect on: enzyme activity
Action: inhibitor
Tested at: 0.5 µM
target | scale | remaining activity [%]
NEK9 (Homo sapiens, UniProt Q8TD19) | reference: control | 99.4
CDK7 (Homo sapiens, UniProt P50613) | reference: control | 102
PKN2 (Homo sapiens, UniProt Q16513) | reference: control | 102
EGFR (Homo sapiens, UniProt P00533) | reference: control | 1.99
ROCK2 (Homo sapiens, UniProt O75116) | reference: control | 99.5
Myosin-IIIb (MYO3B, Homo sapiens, UniProt Q8WXR4) | – | 91.1
GRK5 (Homo sapiens, UniProt P34947) | reference: control | 120
NTRK3 (Homo sapiens, UniProt Q16288) | reference: control | 72.7
MAPK10 (Homo sapiens, UniProt P53779) | reference: control | 96.1
PRKD1 (Homo sapiens, UniProt Q15139) | reference: control | 92.3

Block 2
Target: 5-hydroxytryptamine receptor 1B (HTR1B, Homo sapiens, UniProt P28222)
UniProt P28222, sequence (whole entry, looked up): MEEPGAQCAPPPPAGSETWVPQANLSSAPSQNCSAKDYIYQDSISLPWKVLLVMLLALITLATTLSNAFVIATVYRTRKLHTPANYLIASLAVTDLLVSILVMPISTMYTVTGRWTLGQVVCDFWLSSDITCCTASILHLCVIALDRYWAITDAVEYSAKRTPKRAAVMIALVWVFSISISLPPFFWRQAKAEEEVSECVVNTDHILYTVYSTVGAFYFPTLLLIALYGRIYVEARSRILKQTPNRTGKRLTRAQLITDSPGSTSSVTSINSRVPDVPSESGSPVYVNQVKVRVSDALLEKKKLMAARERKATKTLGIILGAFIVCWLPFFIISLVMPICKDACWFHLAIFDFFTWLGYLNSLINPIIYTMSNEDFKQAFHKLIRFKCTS
Effect on: ligand displacement
Technique: radioligand
Tested at: 10 µM
Compound | inhibition [%]
CCS(=O)(=O)c1cc2cc(C[C@@](O)(CC(C)(C)c3ccc(F)cc3C(N)=O)C(F)(F)F)[nH]c2cn1 | 4.85
O=C(Nc1cccnn1)N1CC(CC=Cc2cncc(Oc3ccc(C(F)(F)F)cn3)n2)C1 | 4.8
Cc1nc(Cc2cccc(C(F)(F)F)c2)sc1-c1ccc(C(N)=O)nc1 | 7.99
C[C@H](NC(=O)c1cnc2n1[C@](C)(Cc1ccc(C#N)cc1)C(=O)N2c1cc(Cl)c(F)c(Cl)c1)C(=O)NC1(c2ccccn2)CC1 | 16.5
C[C@@H]1CN(c2cc(-c3nn(C)c4ccc(OC5(C)CC5)cc34)ncn2)C[C@H](C)O1 | 7.83
O=C(O)[C@@H]1[C@@H](Cn2nnc3ccccc3c2=O)CC[C@H]1C(=O)c1ccc(OCCC2CCOCC2)cc1 | 8.05

Block 3
Cell line: HaCaT
Tested at: 100 µM
Time: 36 h
Compound | viability [%]
CC(C)(C)NC(=O)[C@H]1CC[C@H]2[C@@H]3CC[C@H]4NC(=O)C=C[C@]4(C)[C@H]3CC[C@]12C | 98.7
O=c1cc(-c2ccc(O)cc2)oc2cc(O)cc(O)c12 | 14.3
CC(C(=O)O)c1ccc(CC2CCCC2=O)cc1 (stereo not shown) | 90
CC[C@]1(O)C[C@@H]2CN(CCc3c([nH]c4ccccc34)[C@@](C(=O)OC)(c3cc4c(cc3OC)N(C)[C@H]3[C@@](O)(C(=O)OC)[C@H](OC(C)=O)[C@]5(CC)C=CCN6CC[C@]43[C@@H]65)C2)C1 | 9.69
O=C(O)CCc1nc2ccccc2[nH]1 | 95.3
CCOc1nc2cccc(C(=O)OC(C)OC(=O)OC3CCCCC3)c2n1Cc1ccc(-c2ccccc2-c2nnn[nH]2)cc1 (stereo not shown) | 5.21
O=C(O)c1cc(/N=N/c2ccc(O)c(C(=O)O)c2)ccc1O | 93.7

Block 4
Technique: PRP chromatography
Notes: linear fit, 1 mL
SMILES | logD 1,9-decadiene/water [log units]
CC(C)C[C@@H]1NC(=O)[C@H](CC(C)C)NC(=O)[C@H](CC(C)C)NC(=O)[C@@H](C)NC(=O)[C@H](C(C)C)NC(=O)[C@H](Cc2cscn2)NC(=O)[C@H](C)NC1=O | -3
CC(C)C[C@@H]1NC(=O)[C@H](CC(C)C)NC(=O)[C@@H](CC(C)C)NC(=O)[C@H](C)NC(=O)[C@@H](Cc2cscn2)NC(=O)[C@@H](CC(C)C)NC(=O)[C@H](C)NC1=O | -1.21
CC(C)C[C@@H]1NC(=O)[C@H](CC(C)C)NC(=O)[C@@H](CC(C)C)NC(=O)[C@H](CC(C)C)NC(=O)[C@@H](Cc2cscn2)NC(=O)[C@@H](CC(C)C)NC(=O)[C@H](C)NC1=O | 0.196
CC(C)C[C@@H]1NC(=O)[C@H](C(C)C)NC(=O)[C@H](Cc2cscn2)NC(=O)[C@H](CCC(=O)N2CCCC2)NC(=O)[C@@H](CCC(=O)N2CCCC2)NC(=O)[C@H](CC(C)C)NC(=O)[C@@H](CC(C)C)NC1=O | -1.96
CC(C)C[C@@H]1NC(=O)[C@H](Cc2cscn2)NC(=O)[C@H](Cc2cscn2)NC(=O)[C@H](C)NC(=O)[C@@H](CCC(=O)N2CCCC2)NC(=O)[C@H](CC(C)C)NC(=O)[C@@H](CC(C)C)NC1=O | -2.14

Repeated from above (block 3):
Compound | viability [%]
CC(C)(C)NC(=O)[C@H]1CC[C@H]2[C@@H]3CC[C@H]4NC(=O)C=C[C@]4(C)[C@H]3CC[C@]12C | 98.7
O=c1cc(-c2ccc(O)cc2)oc2cc(O)cc(O)c12 | 14.3
